Published values of several laboratories.
Lines come from different studies, so protocols differ. ± marks the error that the study gave.
CYP2C9: Cytochrome P450 2C9 (CYP2C9, Homo sapiens, UniProt P11712)
UniProt P11712, sequence (whole entry, looked up): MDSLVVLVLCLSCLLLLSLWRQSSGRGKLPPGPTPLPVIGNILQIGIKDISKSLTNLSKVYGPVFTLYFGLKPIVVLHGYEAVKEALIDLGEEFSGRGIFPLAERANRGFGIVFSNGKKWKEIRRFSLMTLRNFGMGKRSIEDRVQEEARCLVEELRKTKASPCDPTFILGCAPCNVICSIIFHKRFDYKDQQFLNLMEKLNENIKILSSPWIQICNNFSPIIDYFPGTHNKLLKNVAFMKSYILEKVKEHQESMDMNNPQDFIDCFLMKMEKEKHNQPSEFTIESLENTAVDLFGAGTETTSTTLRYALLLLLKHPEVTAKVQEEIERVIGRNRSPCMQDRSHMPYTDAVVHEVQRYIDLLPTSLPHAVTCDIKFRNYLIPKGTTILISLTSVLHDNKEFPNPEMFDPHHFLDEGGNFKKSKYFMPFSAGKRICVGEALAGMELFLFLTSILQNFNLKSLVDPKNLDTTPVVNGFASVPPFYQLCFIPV
Albumin: Albumin (Mus musculus, UniProt P07724)
UniProt P07724, sequence (whole entry, looked up): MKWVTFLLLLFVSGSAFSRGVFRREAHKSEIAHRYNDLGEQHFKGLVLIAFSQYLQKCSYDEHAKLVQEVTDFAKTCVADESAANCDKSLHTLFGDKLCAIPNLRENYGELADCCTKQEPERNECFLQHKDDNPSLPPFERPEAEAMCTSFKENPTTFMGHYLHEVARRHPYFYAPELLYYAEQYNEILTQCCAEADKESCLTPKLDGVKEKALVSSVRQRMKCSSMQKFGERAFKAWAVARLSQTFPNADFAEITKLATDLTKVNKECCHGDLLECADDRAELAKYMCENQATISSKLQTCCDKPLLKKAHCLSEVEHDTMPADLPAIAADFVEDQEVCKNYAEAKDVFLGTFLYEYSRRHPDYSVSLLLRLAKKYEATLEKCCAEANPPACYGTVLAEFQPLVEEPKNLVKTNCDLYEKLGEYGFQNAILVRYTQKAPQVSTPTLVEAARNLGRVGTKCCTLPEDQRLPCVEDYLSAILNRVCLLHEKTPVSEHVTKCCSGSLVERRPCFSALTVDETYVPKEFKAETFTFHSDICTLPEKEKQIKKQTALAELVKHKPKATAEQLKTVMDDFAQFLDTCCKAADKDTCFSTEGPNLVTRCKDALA
CYP2C19: Cytochrome P450 2C19 (CYP2C19, Homo sapiens, UniProt P33261)
UniProt P33261, sequence (whole entry, looked up): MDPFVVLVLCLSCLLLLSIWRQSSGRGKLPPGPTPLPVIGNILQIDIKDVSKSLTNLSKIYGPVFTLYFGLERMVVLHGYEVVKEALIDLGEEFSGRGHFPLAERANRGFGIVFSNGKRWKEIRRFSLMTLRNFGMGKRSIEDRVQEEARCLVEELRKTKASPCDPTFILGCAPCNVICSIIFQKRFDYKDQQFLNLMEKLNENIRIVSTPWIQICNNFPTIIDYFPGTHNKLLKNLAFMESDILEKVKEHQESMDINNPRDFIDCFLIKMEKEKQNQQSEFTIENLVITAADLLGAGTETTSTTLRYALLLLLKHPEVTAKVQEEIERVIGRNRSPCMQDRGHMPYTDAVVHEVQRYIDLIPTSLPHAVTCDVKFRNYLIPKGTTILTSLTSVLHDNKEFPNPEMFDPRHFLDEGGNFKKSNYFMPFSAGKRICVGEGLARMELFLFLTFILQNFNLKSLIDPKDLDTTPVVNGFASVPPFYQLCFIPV
TDP1: Tyrosyl-DNA phosphodiesterase 1 (TDP1, Homo sapiens, UniProt Q9NUW8)
UniProt Q9NUW8, sequence (whole entry, looked up): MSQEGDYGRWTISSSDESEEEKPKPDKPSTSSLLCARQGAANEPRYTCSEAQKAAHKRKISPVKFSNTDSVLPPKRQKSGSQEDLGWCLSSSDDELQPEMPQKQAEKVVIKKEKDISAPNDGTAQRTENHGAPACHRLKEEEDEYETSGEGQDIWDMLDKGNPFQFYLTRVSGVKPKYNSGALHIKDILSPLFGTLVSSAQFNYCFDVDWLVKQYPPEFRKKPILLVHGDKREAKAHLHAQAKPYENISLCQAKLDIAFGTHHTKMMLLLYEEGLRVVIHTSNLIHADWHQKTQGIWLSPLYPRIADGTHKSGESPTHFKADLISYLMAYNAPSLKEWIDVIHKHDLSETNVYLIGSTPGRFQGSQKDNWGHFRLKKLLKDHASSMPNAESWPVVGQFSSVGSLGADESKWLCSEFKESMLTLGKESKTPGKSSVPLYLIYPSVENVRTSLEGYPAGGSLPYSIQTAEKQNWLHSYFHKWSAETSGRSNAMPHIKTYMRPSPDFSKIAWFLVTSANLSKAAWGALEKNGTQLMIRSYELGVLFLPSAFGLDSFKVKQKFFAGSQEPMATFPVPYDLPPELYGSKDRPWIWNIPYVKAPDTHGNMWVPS

Compound	target	assay	system	setting	scale	measurement	result
O=C(CN1CN(c2ccccc2)C2(CCN(C(=O)c3cc4cn[nH]c4cn3)CC2)C1=O)NCC(F)(F)F	CYP2C9	enzyme activity, inhibitor	–	–	–	IC50	2 µM
CN1CCN(c2ccc3[nH]c(-c4ccc5[nH]c(-c6ccc(OCCCCNC(=O)c7ccc8c(c7)C7(OC8=O)c8ccc(N(C)C)cc8[Si](C)(C)c8cc(N(C)C)ccc87)cc6)nc5c4)nc3c2)CC1	Albumin	–	PBS	1 µM, 1 h, with: 25 mg/mL albumin	–	fluorescence quantum yield	0.006 ± 0.003
C=C(NC(=O)c1csc(-c2nc3c(cc2O)-c2nc(cs2)C(=O)NC(C(C)O)C(=O)NC(=C(C)OC)c2nc(cs2)C(=O)NC2c4nc(cs4)C(=O)NC(COC(=O)c4c5c6c(cccc6n4O)COC(=O)C(OC4CC(C)(O)C(N(C)C)C(C)O4)C2OC5)c2nc-3cs2)n1)C(N)=O (stereo not shown)	CYP2C19	enzyme activity, inhibitor, substrate cocktail	pooled human liver microsomes	up to 50 µM, pH 7.4	–	remaining activity	> 70%
CNC(=O)C1CCCN(C(=O)C2CC3CCC2N3C(=O)[C@@H]2C[C@@H](O)CN2C(=O)NCc2cccc(Cl)c2F)C1 (mixture of isomers)	CYP3A4 (human)	inhibitor, time-dependent inhibition	–	16.7 µM, preincubated with NADPH, with: testosterone substrate	baseline: negative control	remaining activity	95.9%
O=c1c(-c2ccccc2)c[nH]n1-c1ccccn1	iron(II)	–	aqueous solution	pH above 3, iron:ligand 1:3 complex	–	log stability constant	~21
N#Cc1cccc(N2CN(CC(=O)NCC(F)(F)F)C(=O)C23CCN(C(=O)c2cnc4[nH]ncc4c2)CC3)c1	CYP2C9	enzyme activity, inhibitor	–	–	–	IC50	4.4 µM
O=C(O)c1ccc(Nc2c(-c3ccc(CON=Cc4cccc5cccnc45)cc3)nc3cc(-c4ccccc4)ccn23)cc1	TDP1	enzyme activity, inhibitor	–	100 µM	–	inhibition	32.5%
CN1CCN(c2ccc3[nH]c(-c4ccc5[nH]c(-c6ccc(OCCCCNC(=O)c7cccc8c7C(=O)OC87c8ccc(N(C)C)cc8[Si](C)(C)c8cc(N(C)C)ccc87)cc6)nc5c4)nc3c2)CC1	Albumin	–	PBS	1 µM, 1 h, with: 25 mg/mL albumin	–	fluorescence quantum yield	0.001 ± 0.004
C[C@@H](Nc1c(-c2c(F)cc(C#N)cc2F)c(Cl)nc2ncnn12)C(C)(C)C	human CYP3A4, CYP2D6, CYP2C19, CYP2C9, CYP1A2	inhibitor	pooled human liver microsomes	pH 7.4, with: isoform-specific probe substrates	–	IC50	> 15 µM
CN(C)c1ccc2c(c1)[Si](C)(C)c1cc(N(C)C)ccc1C21OC(=O)c2ccc(C(=O)O)cc21	Albumin	binding, fluorescence titration	PBS	–	–	Kd	5 ± 1 µM
COC1C(c2ccc(Cl)c(Cc3ccc(OC4CCOC4)cc3)c2)OC(CO)C(O)C1O (stereo not shown)	CYP2C19	enzyme activity, inhibitor	human, liver microsomes	10 µM, 10 min	–	inhibition	34.5%
C=CC(=O)Nc1cc(Nc2nccc(-c3cn(C)c4ccccc34)n2)c(OCC(F)(F)F)nc1N(C)CCN(C)C	CYP2C9	substrate	–	3 µM, 60 min, 2C9 isoform, liver abundance-normalized	–	contribution to substrate depletion	7.92%
CN(C)/C=C/c1c(C=NOCc2ccc3nc(-c4ccccc4)c(Nc4ccc(C(=O)O)cc4)n3c2)c2cc([N+](=O)[O-])ccc2n1C	TDP1	enzyme activity, inhibitor	–	100 µM, unpurified compound	–	inhibition	98.5%

For quick reference, copied from above:
Compound	target	assay	system	setting	scale	measurement	result
C[C@@H](Nc1c(-c2c(F)cc(C#N)cc2F)c(Cl)nc2ncnn12)C(C)(C)C	human CYP3A4, CYP2D6, CYP2C19, CYP2C9, CYP1A2	inhibitor	pooled human liver microsomes	pH 7.4, with: isoform-specific probe substrates	–	IC50	> 15 µM
N#Cc1cccc(N2CN(CC(=O)NCC(F)(F)F)C(=O)C23CCN(C(=O)c2cnc4[nH]ncc4c2)CC3)c1	CYP2C9	enzyme activity, inhibitor	–	–	–	IC50	4.4 µM
